Experimental data gathered from unrelated publications.
Lines come from different studies, so protocols differ. Numbers after ± are the reported error.
FYN: Tyrosine-protein kinase Fyn (FYN, Homo sapiens, UniProt P06241)
UniProt P06241, sequence (whole entry, looked up): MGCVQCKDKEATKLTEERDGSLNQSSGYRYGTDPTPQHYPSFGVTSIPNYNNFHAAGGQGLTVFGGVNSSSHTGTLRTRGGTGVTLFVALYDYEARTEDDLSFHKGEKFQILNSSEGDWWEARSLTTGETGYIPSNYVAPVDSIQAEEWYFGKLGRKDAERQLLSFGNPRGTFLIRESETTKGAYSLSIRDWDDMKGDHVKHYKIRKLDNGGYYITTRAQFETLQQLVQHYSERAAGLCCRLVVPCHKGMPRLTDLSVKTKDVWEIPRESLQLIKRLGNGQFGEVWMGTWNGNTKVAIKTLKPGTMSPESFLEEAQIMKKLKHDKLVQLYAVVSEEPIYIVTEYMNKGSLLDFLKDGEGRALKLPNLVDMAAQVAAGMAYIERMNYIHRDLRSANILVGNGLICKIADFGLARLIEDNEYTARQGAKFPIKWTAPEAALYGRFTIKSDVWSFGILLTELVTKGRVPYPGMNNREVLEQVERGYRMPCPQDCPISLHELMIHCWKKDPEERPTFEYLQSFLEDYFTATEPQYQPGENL
FYN SH3 domain: Tyrosine-protein kinase Fyn, SH3 domain (FYN, Homo sapiens, UniProt P06241)

| Compound | target | assay | test system | conditions | measurement | result |
| --- | --- | --- | --- | --- | --- | --- |
| [2H]c1cc(C)c(NC(=O)c2cnc(Nc3cc(N4CCC(O)CC4)nc(C)n3)s2)c(Cl)c1 | FYN |  |  | 0.001 µM | inhibition | > 50% |
| C=CC(=O)N1CCC([C@@H]2CCNc3c(C(N)=O)c(-c4ccc(Oc5ccccc5)cc4)nn32)CC1 | FYN | kinase activity, inhibitor, HotSpot radiometric |  | 100 nM, together with: ATP 10 µM | remaining activity | 76.3 ± 3.2% |
| CC(=O)N[C@H](C(=O)N[C@@H](CC(N)=O)C(=O)N[C@@H](CCCCN)C(=O)N[C@@H](C)C(=O)N[C@@H](CC(C)C)C(=O)N1CCC[C@H]1C(=O)N[C@@H](C)C(=O)N[C@@H](CC(C)C)C(=O)N1CCC[C@H]1C(=O)N[C@H](C(=O)N[C@@H](C)C(N)=O)C(C)C)C(C)C | FYN SH3 domain | binding, isothermal titration calorimetry | 50 mM sodium phosphate, 100 mM NaCl | pH 7.0, 25 °C | -TΔS | 18.3 ± 1.9 kJ/mol |
| COc1cc(F)ccc1-c1ncnc(Nc2cccc(C[S@](C)(=N)=O)c2)n1 | FYN | kinase activity |  | 10 µM, together with: 10 µM ATP | remaining activity | 24% |
| [2H]c1cc(C)c(NC(=O)c2cnc(Nc3cc(N4CCCCC4)nc(C)n3)s2)c(Cl)c1 | FYN |  |  | 0.0001 µM | inhibition | > 50% |
| COc1ccc(F)cc1C(=O)NCc1ccc(-c2nn([C@@H](C)C(F)(F)F)c(N)c2C(N)=O)cc1 | FYN | kinase activity, inhibitor, HotSpot radiometric |  | 1000 nM, together with: ATP at Km | remaining activity | 48.8 ± 1.8% |
| CC(=O)N[C@H](C(=O)N[C@@H](CC(N)=O)C(=O)N[C@@H](CCCCN)C(=O)N1CCC[C@H]1C(=O)N[C@@H](CC(C)C)C(=O)N1CCC[C@H]1C(=O)N1CCC[C@H]1C(=O)N[C@@H](CC(C)C)C(=O)N1CCC[C@H]1C(=O)N[C@H](C(=O)N[C@@H](C)C(N)=O)C(C)C)C(C)C | FYN SH3 domain | ligand binding, FTIR spectroscopy, refers to: asymmetric stretch band A |  | pH 7.0, FYN complex, together with: 4 mM peptide | wavenumber | 2226.7 ± 0.4 cm⁻¹ |
| CC#CC(=O)N1CCC[C@H]1c1nc(-c2ccc(C(=O)Nc3ccccn3)cc2)c2c(N)nccn12 | FYN | kinase activity, inhibitor, HotSpot radiometric |  | 100 nM, together with: ATP 10 µM | remaining activity | 100 ± 2% |
| CC/C(=N\NC(=O)NCc1cccc(O)c1)c1ccc(O)c(C)c1O | Tyrosine-protein kinase Fyn, isoform b (FYN, Homo sapiens, UniProt P06241) | kinase activity, inhibitor |  | 0.1 µM | inhibition | 1.1% |

A few entries again:
| Compound | target | assay | test system | conditions | measurement | result |
| --- | --- | --- | --- | --- | --- | --- |
| CC/C(=N\NC(=O)NCc1cccc(O)c1)c1ccc(O)c(C)c1O | Tyrosine-protein kinase Fyn, isoform b (FYN, Homo sapiens, UniProt P06241) | kinase activity, inhibitor |  | 0.1 µM | inhibition | 1.1% |
